Assay results pooled from the literature.
A part holds a random share of what one study measured.

Sample 1
Target: Interferon regulatory factor 7, full length, phosphomimetic (IRF7, Homo sapiens, UniProt Q92985, residues 1-503, S101K/S471D/S472D/S475D/S476D/S477D/S483D/S484D/S487D)
Technique: protein-binding microarray
Form: double-stranded DNA, one strand shown
Matrix: in vitro
Concentration: 250 nM
Setting: 60-bp whole probe
Added: salmon DNA 0.4 mg/ml
Reference: random background probes
Direction: higher = stronger binding
All sequences stand within: GCCTAGCAC … GTCTTGATTCGCTTGACGCTGCTG
Construct (chain): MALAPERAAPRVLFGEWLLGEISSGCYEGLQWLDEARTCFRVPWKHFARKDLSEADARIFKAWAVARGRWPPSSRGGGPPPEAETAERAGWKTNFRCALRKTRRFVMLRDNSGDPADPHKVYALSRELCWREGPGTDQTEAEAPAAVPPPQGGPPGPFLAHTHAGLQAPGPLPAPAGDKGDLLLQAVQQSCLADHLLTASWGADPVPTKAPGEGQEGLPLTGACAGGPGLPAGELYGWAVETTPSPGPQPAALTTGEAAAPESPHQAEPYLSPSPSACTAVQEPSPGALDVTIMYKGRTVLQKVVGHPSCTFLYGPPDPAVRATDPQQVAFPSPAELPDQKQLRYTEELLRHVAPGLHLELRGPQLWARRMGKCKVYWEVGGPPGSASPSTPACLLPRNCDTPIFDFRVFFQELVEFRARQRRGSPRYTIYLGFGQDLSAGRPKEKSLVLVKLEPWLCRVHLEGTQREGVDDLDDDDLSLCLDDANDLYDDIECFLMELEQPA
| Oligonucleotide | log fluorescence |
| --- | --- |
| GACGGACTGGACTTTCGGGAGGTGCTA | -0.691 z-score |
| TTGGGACTGCTTCTCCTTTAGTGCTAG | 0.0266 z-score |
| CAAACACTAGTTTTCATTTTGTGCTAG | 2.64 z-score |
| GCTAGTGTGCCATATTTATCTGTGCTA | -1.05 z-score |
| GGGCCAGCAGCCAGGTGGAGGTGCTAG | -1.03 z-score |
| TTAGATATCGGGTTTCAATTAGTGCTA | 0.97 z-score |
| GCCGGTTTCGACACTGGGGACGTGCTA | 4.66 z-score |
| GACGGACTGGGGGTTCGGGACGTGCTA | 0.162 z-score |
| TCAGCTCTGCAGCTCAGACTGTGCTAG | -0.803 z-score |
| GAAGATTTCAGTTTCGAGACGTGCTAG | 5.51 z-score |
| CAGGTTTTGCTAAGTCAACTGGTGCTA | 0.593 z-score |
| ATTCCTTTGCCTCCAGGCGCGTGCTAG | 1.08 z-score |
| GACGGACTGCTACTTCTGACGTGCTAG | -0.553 z-score |
| GACGGTCTCCGTATCGGGACGTGCTAG | -0.223 z-score |
| GACGGTATCGGCTTTCGGGACGTGCTA | 0.24 z-score |
| GAGCAGAGGCTGATGTATGTGTGCTAG | -1.26 z-score |
| CTTTCTCTGCTCTTTTCAACAGTGCTA | 2.37 z-score |
| TTAGGTATCGGTTTCGGTAAGTGCTAG | 7.42 z-score |
| CTTTTATTAGTGACTCAGCACGTGCTA | 1.98 z-score |

Sample 2
Target: Prothrombin, mature alpha-thrombin (F2, Homo sapiens, UniProt P00734)
Technique: aptamer microarray, sandwich
Form: DNA with 2'F-ANA
Matrix: in vitro
Concentration: 200 nM
Setting: whole 15-mer aptamer, many near background
Added: Cy3 exosite-II aptamer, 400 nM
Direction: higher = stronger binding
Oligonucleotide: GGTTGGTGTGGTTGG
| Modification | mean fluorescence intensity [a.u.] |
| --- | --- |
| 2'F-ANA at 1 3 4 5 6 11 14 15 | 54.1 |
| 2'F-ANA at 2 6 7 8 10 12 14 15 | 88.2 |
| 2'F-ANA at 5 7 11 12 13 15 | 94 |
| 2'F-ANA at 2 3 5 7 10 11 14 15 | 71 |
| 2'F-ANA at 1 2 5 7 8 9 13 14 15 | 49.1 |
| 2'F-ANA at 1 5 6 9 11 12 14 15 | 46.2 |
| 2'F-ANA at 1 2 8 10 12 14 15 | 49.1 |
| 2'F-ANA at 1 2 5 11 12 14 15 | 49.9 |
| 2'F-ANA at 1 2 3 7 9 10 13 14 15 | 55.5 |
| 2'F-ANA at 2 4 6 7 8 11 12 13 14 15 | 108 |
| 2'F-ANA at 1 3 6 8 11 12 13 14 15 | 114 |
| 2'F-ANA at 2 5 10 12 | 50.9 |
| 2'F-ANA at 3 4 8 9 10 11 14 | 164 |
| 2'F-ANA at 1 2 5 8 10 12 13 | 45.3 |
| 2'F-ANA at 1 2 4 6 9 10 12 13 | 52.5 |
| 2'F-ANA at 1 4 5 6 8 9 11 13 | 48 |
| 2'F-ANA at 4 7 8 9 11 13 15 | 183 |
| 2'F-ANA at 1 8 9 10 14 15 | 47.6 |
| 2'F-ANA at 1 4 6 9 10 11 | 51.1 |
| 2'F-ANA at 2 5 9 11 14 | 52.8 |
| 2'F-ANA at 1 2 4 7 11 12 13 14 | 101 |
| 2'F-ANA at 2 3 6 7 12 13 | 864 |
| 2'F-ANA at 3 8 10 | 677 |
| 2'F-ANA at 5 9 10 12 14 | 155 |

Sample 3
Target: RING finger protein unkempt homolog, zinc fingers 1-6, GST-SBP tag (UNK, Homo sapiens, UniProt Q9C0B0, residues 30-357)
Technique: RNA Bind-n-Seq
Form: RNA
Matrix: in vitro
Concentration: not given
Setting: RNA with constant flanks, human and mouse sites, ends assumed
Reference: input RNA pool
Direction: higher = stronger binding
All sequences stand within: GGGAGUUCUACAGUCCGACGAUC … CAACAGAGGAUUGAGCAUCA
Residues (chain): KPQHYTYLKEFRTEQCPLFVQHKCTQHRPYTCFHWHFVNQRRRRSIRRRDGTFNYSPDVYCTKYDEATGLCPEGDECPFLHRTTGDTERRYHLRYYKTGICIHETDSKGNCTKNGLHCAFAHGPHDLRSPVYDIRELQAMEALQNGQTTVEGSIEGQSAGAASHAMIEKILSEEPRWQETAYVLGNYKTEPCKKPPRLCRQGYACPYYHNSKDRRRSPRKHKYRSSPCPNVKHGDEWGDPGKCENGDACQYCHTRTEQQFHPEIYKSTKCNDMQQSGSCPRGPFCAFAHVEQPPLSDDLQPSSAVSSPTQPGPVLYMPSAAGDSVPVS
| Oligonucleotide | bound/input enrichment |
| --- | --- |
| GGUCCACAUACUCCCCAUCGGGUGCCUGGACCUUGGGGUUCCCCCGAACCUUUUCUGCUCUAUAGGCCAGCUCCACCAUCCUAUGGGAGGGGAGGGGAGGUCCGAGGAUCCUUGUACAGA | 0.107 ratio |
| AACACAUUUAAUGAACAUCAUACACAAGACAGCAACAUACCUUUCUUUCUUGGUCAGACCAUUAGAUGGAGAGGAUUAUGUCUACUGAAAAUACUUUUGGCACGCCAUCACUUCAGCAAA | 0.258 ratio |
| CAAUUAUCCUUGAAGUUUGAAAGGUGUUUAGAUUCAGAAGUUGUCACCUUUGAAAUUUUGUCUGAUGACUACUCAAAGAUUGUCUUCUUACAUAAUGAUAGAUACAUUGAAUUUCAUUCG | 0.248 ratio |
| GGGCUGCUUUACGCCCUGAGGAUCCCUUUGAGGCUGUGUGAGAAUUUGGCAGCGGUGACUGUAUUUUUAAAUUCAUUGACACCCAAAUUCUAUGUGGCACUUACAGGGACCUCUUCAUUG | 0.0736 ratio |
| CUGCAACCAACCUCAGGAUGCUAUUAAAUGCUAUUUAAAUGCAACUAGAAGCAAAAAUUGUAGUAAUACCUCUGGACUUGCAGCACGAAUUAAGUAUUUACAGAAUACUUCUGAUAAUUG | 0.296 ratio |
| GAACACGGCAUCCAGCCCGAUGGCCAGAUGCCAAGUGACAAGACCAUUGGGGGAGGAGAUGAUUCCUUCAACACCUUCUUCAGUGAGACGGGGGCUGGCAAGCAUGUGCCCCGGGCAGUG | 0.129 ratio |
| UUCGUUGCCUGUAAGCCCACUUGCUUCUCACUUCAUCAGACAAGCUCAAUACACACAAGAUAGUAAUUUAAUGGGAGCUGUUAGGCUGGUCCACACGUGAAGAGAAACAAUUUCUAGCCU | 1.22 ratio |
| GGAUCUUGUGACUGGCUUUGCUUGAUUGGUCAUUGGUAUCUCAACAAGCAUGGAGAUGAGAUUAGAAGUUUUGACAUCAACAAGUAUCAAGCAGAAAAAACCCUGGCCCAGAGUAUCCUG | 0.515 ratio |

Sample 4
Target: Sal-like protein 4, full length isoform A (SALL4, Homo sapiens, UniProt Q9UJQ4, residues 1-1053)
Sequence of UniProt Q9UJQ4 (whole entry, looked up): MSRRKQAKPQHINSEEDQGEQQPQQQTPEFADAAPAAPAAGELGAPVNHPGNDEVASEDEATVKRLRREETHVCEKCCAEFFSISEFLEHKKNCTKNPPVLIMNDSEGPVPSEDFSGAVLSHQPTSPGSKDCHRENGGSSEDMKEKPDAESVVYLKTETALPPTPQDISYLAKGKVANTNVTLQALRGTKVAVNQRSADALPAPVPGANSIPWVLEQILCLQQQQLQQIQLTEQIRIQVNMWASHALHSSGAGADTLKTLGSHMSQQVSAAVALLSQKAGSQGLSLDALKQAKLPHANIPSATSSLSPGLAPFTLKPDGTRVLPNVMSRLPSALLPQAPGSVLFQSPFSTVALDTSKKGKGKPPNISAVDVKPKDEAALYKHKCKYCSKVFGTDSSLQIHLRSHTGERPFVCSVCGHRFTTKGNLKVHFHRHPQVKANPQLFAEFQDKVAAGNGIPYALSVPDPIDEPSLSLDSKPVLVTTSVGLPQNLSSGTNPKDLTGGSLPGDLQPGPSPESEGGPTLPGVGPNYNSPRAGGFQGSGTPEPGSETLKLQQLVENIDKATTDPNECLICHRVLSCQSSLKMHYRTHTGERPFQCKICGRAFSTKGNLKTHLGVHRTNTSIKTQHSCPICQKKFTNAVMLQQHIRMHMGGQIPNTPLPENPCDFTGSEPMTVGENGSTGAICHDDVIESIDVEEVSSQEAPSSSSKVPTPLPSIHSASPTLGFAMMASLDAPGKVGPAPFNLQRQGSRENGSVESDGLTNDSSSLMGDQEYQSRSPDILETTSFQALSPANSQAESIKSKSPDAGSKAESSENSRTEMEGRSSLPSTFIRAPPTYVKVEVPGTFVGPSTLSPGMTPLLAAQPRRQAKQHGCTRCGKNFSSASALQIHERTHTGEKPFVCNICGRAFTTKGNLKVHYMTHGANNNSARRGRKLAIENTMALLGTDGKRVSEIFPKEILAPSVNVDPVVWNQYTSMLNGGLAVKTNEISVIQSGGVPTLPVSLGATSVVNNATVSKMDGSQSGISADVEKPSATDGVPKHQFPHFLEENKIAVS
Technique: universal PBM
Form: double-stranded DNA, one strand shown
Matrix: in vitro
Concentration: 600 nM
Setting: 8-mer, flanks averaged, mean of replicates
Direction: higher = stronger binding
| Oligonucleotide | E-score |
| --- | --- |
| TGACGACA | -0.038 |
| GACCTCCA | -0.206 |
| CGGTCACC | -0.357 |
| AGGTGTAC | -0.0298 |
| CAATGGGC | -0.226 |
| CCGAAATA | 0.303 |
| GAGGATGC | -0.219 |
| GTGTCGAA | -0.0993 |
| GCCCAAAC | -0.189 |
| ATTTCGCA | 0.105 |
| TAAATGAA | 0.254 |
| GACCTTAC | -0.0346 |
| AGATGATG | 0.151 |
| CCCAGTGC | -0.294 |
| ACCTACAA | 0.237 |
| ACCCGACA | -0.264 |
| TCTAGTCA | 0.0586 |
| AGTATCGC | 0.0344 |
| GCGCCTCA | -0.207 |
| CCGTGAGG | -0.421 |
| TTTGAAAA | 0.376 |
